Measurements of several laboratories.
Each line is one published result; not all experiments were run side by side. ± gives the spread as reported.
TAOK3: Serine/threonine-protein kinase TAO3 (TAOK3, Homo sapiens, UniProt Q9H2K8)
Sequence of UniProt Q9H2K8 (whole entry, looked up): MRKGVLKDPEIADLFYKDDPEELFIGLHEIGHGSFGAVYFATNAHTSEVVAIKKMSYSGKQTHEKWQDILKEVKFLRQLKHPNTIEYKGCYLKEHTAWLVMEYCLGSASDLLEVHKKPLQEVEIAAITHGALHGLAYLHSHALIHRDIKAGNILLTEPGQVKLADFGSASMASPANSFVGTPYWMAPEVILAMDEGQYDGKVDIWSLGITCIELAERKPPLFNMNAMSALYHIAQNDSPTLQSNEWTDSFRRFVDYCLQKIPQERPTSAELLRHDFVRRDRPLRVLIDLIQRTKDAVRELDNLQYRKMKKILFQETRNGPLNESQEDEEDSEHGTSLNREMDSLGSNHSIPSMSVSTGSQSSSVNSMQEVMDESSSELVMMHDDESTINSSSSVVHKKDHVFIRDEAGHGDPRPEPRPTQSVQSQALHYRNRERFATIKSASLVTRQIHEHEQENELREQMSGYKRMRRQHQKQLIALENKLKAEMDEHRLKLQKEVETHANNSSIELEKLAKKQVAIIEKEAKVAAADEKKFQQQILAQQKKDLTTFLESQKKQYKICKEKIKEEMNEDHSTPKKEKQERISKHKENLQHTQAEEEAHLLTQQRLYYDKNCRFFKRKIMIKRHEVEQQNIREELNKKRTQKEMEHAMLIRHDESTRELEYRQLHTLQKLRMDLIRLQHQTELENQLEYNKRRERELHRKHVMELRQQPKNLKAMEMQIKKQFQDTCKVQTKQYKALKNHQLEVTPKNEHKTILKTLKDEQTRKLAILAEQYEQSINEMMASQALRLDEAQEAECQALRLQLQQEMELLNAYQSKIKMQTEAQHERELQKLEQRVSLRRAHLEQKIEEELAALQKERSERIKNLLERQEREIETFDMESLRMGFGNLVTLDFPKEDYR
MAP3K1: Mitogen-activated protein kinase kinase kinase 1 (MAP3K1, Homo sapiens, UniProt Q13233)
Sequence of UniProt Q13233 (whole entry, looked up): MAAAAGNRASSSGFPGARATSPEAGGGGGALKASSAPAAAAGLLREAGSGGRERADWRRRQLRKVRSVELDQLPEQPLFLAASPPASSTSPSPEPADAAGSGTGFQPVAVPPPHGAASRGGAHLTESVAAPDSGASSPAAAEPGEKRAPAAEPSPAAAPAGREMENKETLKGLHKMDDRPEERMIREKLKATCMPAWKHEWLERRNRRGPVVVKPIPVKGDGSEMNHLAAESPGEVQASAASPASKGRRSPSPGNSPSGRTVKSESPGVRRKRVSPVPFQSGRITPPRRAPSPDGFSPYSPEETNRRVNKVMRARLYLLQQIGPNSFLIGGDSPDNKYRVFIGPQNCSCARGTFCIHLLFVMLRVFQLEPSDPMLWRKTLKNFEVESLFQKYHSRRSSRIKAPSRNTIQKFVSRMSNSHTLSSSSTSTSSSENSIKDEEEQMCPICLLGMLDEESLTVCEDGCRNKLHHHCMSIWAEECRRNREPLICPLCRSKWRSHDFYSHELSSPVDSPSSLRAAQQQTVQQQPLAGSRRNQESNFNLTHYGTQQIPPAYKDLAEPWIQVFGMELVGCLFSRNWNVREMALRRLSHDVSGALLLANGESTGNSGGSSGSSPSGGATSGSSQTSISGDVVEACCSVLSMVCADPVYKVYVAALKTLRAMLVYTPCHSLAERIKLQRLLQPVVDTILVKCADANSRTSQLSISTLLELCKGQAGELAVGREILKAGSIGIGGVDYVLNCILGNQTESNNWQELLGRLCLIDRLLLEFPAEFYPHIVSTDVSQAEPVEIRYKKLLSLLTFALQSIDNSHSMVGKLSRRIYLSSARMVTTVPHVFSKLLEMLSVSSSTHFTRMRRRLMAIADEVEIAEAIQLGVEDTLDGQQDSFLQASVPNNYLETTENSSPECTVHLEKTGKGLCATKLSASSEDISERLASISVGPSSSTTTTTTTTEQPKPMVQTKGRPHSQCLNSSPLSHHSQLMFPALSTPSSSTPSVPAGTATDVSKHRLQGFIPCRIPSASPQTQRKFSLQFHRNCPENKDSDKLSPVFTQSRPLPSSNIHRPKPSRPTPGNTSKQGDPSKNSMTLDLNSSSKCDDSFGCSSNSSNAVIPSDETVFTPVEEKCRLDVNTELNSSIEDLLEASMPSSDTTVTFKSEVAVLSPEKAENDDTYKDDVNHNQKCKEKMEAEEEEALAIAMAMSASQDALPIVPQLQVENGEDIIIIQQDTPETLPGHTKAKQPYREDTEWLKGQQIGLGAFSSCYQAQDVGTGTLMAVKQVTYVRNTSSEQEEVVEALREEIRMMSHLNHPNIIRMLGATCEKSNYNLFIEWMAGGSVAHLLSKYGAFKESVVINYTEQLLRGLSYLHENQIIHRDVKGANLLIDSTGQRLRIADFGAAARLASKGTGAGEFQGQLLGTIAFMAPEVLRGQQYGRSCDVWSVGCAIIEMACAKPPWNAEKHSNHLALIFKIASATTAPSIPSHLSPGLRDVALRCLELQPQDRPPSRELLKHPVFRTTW
Sequence of UniProt D6WMX4 (whole entry, looked up): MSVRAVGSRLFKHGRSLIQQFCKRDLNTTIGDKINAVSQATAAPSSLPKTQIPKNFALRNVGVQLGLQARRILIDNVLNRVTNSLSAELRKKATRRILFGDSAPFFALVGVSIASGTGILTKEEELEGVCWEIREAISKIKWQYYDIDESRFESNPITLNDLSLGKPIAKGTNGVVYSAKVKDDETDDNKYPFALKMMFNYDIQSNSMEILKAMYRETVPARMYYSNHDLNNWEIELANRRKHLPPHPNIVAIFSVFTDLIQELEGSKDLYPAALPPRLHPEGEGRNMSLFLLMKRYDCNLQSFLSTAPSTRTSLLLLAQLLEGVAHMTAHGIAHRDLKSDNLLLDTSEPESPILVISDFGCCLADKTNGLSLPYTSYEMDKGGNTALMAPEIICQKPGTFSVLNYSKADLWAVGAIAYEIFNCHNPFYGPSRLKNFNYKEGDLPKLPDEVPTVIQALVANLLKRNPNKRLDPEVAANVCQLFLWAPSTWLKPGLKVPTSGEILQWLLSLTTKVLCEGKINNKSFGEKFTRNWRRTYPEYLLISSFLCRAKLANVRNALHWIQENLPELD
Sequence of UniProt Q8IVH8 (whole entry, looked up): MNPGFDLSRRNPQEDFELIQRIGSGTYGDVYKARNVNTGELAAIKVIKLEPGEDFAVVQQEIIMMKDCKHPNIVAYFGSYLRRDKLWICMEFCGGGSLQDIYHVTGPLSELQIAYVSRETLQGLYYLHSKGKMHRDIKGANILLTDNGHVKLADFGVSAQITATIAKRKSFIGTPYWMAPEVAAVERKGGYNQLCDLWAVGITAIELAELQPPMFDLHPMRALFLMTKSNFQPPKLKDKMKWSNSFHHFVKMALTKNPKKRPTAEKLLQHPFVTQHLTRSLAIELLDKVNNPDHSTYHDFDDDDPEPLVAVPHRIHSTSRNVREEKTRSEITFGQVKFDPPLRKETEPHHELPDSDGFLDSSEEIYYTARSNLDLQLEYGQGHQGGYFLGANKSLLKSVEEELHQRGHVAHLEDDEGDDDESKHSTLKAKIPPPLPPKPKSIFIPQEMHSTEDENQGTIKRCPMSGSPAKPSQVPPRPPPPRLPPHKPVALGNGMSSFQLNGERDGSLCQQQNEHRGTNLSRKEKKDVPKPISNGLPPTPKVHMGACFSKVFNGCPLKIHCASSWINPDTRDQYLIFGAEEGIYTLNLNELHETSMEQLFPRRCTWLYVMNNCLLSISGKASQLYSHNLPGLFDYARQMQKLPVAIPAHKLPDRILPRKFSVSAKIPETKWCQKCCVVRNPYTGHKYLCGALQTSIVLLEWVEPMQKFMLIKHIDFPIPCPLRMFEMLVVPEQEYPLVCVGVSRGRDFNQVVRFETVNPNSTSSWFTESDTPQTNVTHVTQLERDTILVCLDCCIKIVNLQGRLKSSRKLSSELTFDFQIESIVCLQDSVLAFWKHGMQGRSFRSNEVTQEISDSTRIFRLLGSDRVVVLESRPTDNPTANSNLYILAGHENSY
Sequence of UniProt P42681 (whole entry, looked up): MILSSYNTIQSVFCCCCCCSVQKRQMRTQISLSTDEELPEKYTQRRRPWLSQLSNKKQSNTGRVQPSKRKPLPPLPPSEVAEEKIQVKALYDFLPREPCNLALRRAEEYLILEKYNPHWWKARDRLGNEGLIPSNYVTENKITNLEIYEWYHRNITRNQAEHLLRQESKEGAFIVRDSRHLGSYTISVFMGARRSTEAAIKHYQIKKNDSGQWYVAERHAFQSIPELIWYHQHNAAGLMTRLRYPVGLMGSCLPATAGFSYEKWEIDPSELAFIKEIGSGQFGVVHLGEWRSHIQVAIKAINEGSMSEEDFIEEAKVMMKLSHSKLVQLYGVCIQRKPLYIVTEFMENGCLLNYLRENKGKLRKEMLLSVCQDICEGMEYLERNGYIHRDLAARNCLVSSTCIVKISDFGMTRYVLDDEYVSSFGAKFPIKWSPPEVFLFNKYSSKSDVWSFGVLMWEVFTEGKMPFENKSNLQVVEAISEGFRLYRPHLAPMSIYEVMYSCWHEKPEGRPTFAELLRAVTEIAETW
Sequence of UniProt Q64663 (whole entry, unmodified, looked up): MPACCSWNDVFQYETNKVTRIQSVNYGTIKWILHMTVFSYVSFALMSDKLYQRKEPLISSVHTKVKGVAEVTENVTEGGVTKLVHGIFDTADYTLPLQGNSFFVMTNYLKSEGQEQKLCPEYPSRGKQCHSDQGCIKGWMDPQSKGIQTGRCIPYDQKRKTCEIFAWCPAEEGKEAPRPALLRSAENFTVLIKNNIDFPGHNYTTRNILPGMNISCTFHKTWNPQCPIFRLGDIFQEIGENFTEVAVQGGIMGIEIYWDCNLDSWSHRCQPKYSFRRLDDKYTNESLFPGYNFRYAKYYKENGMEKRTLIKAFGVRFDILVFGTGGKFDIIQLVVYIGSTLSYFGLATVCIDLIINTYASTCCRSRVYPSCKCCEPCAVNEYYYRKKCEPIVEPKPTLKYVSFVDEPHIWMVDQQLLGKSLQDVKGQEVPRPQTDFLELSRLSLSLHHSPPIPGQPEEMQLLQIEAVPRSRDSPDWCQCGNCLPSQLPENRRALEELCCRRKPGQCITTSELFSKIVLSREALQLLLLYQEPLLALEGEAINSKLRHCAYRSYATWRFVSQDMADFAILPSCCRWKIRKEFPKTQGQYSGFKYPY

Structure (SMILES) | target | test | system | setting | scale | remaining activity [%]
c1cnc2ccc(Nc3nc(NC4CC4)c4nc[nH]c4n3)cc2c1 | Ribosomal protein S6 kinase beta-1 (RPS6KB1, Homo sapiens, UniProt P23443) | kinase activity, inhibitor, SelectScreen kinase profiling |  | 1 µM | relative to: control | 74
COc1cc(F)ccc1-c1ncnc(Nc2cccc(C[S@](C)(=N)=O)c2)n1 | TAOK3 | kinase activity |  | 10 µM, added: 10 µM ATP |  | 74
FC(F)c1nc2ccccc2n1-c1nc(N2CCOCC2)nc(N2CCOCC2)n1 | Casein kinase I isoform delta (CSNK1D, Homo sapiens, UniProt P48730) | enzyme activity |  | 10 µM |  | 76
C[C@@H](Oc1ccc(S(C)(=O)=O)cc1C(=O)N1C[C@@H]2C[C@]2(c2cc(C(F)(F)F)on2)C1)C(F)(F)F | Sodium- and chloride-dependent glycine transporter 1 (SLC6A9, Homo sapiens, UniProt P48067, L476T) | glycine uptake, inhibitor, [3H]glycine uptake |  | 0.001 µM, L422T mutant, log concentration 1, added: [3H]glycine | relative to: no inhibitor | 94.3
COc1cc(N2CCN(C)CC2)ccc1Nc1nc(N)n(C(=O)NCc2c(Cl)cccc2Cl)n1 | Phosphatidylinositol 4-kinase beta (PI4KB, Homo sapiens, UniProt Q9UBF8) | enzyme activity |  | 10 µM | relative to: control | 18
O=C(O)c1ccc(Nc2ncc3c(n2)-c2ccc(Cl)cc2C(c2c(F)cccc2F)=NC3)cc1 | FGFR1(h) | kinase activity |  | 1 µM |  | 43
C=CC(=O)N1CCC[C@@H](n2nc(-c3ccc(Oc4ccccc4)cc3)c3c(N)ncnc32)C1 | Fibroblast growth factor receptor 1 (FGFR1, Homo sapiens, UniProt P11362) | kinase activity, inhibitor, HotSpot radiometric |  | 100 nM, added: ATP 10 µM |  | 75.4 ± 1.2
COc1cc(Nc2ncc3c(n2)-c2ccc(Cl)cc2C(c2c(F)cccc2OC)=NC3)ccc1C(=O)O | EPHA5 | kinase activity |  | 1 µM |  | 26
CN(C)CC#Cc1ccc2[nH]c3c(c2c1)-c1nc(N)ncc1CCC3 | TAOK3 | kinase activity, inhibitor, radiometric |  | 1 µM, added: ATP at Km |  | 77
O=C(NC1CCC1)c1ccc2nc(-c3cccc(NS(=O)(=O)NCCN4CCCCC4)c3)cn2c1 | Mitogen-activated protein kinase kinase kinase kinase 3 (MAP4K3, Homo sapiens, UniProt Q8IVH8) | enzyme activity |  | 10 µM |  | 67
C[C@H]1[C@H](OC(=O)CCC(=O)O)O[C@@H]2O[C@@]3(C)CC[C@H]4[C@H](C)CC[C@@H]1[C@@]24OO3 | Non-structural polyprotein pORF1, helicase domain (Hepatitis E virus genotype 1, UniProt P33424) | ATPase activity |  | 4.8 µM | relative to: solvent control | 76.5
CC#CC(=O)N1CCC[C@H]1c1nc(-c2ccc(C(=O)Nc3ccccn3)cc2)c2c(N)nccn12 | Tyrosine-protein kinase TXK (TXK, Homo sapiens, UniProt P42681) | kinase activity, inhibitor, HotSpot radiometric |  | 100 nM, added: ATP 10 µM |  | 86.8 ± 2
COc1cc(N2CCN(C)CC2)ccc1Nc1nc(N)n(C(=S)NCc2c(Cl)cccc2Cl)n1 | Cyclin-dependent kinase 18 (CDK18, Homo sapiens, UniProt Q07002) | enzyme activity |  | 10 µM | relative to: control | 22
OCCS | Alpha-L-fucosidase AlfA (Lacticaseibacillus rhamnosus, UniProt A0A809N3R1) | inhibitor |  | 1000 µM, 5 min | relative to: untreated | 76.8 ± 0.2
COc1ccc(F)cc1C(=O)NCc1ccc(-c2nn([C@@H](C)C(F)(F)F)c(N)c2C(N)=O)cc1 | Proto-oncogene tyrosine-protein kinase receptor Ret (RET, Homo sapiens, UniProt P07949) | kinase activity, inhibitor, HotSpot radiometric |  | 100 nM, added: ATP 10 µM |  | 90.4 ± 0.6
FC(F)(F)Oc1cccc(-c2cnc3ccc(-c4ccncc4)nn23)c1 | Serine/threonine-protein kinase Pink1, mitochondrial (Pink1, Tribolium castaneum, UniProt D6WMX4) |  |  | 5 µM |  | 78
CC(C)OCCn1c(=S)[nH]c(=O)c2[nH]ccc21 | Myeloperoxidase (MPO, Homo sapiens, UniProt P05164) | LDL lipid peroxidation, inhibitor, cholesteryl ester hydroperoxide |  | 1.111 µM |  | 35.3
COc1ccc2cc3[n+](cc2c1OC)CCc1cc2c(cc1-3)OCO2 | P2X purinoceptor 7 (P2rx7, Rattus norvegicus, UniProt Q64663) | ATP-evoked current, inhibitor, whole-cell patch clamp | HEK293 transfected | 300 µM |  | 73.1
CNc1ncc2c(/C=C/C(=O)N3CCC(OC)CC3)nn(Cc3cccc(C(F)(F)F)c3)c2n1 | MAP3K1 | kinase activity, inhibitor |  | 1 µM | relative to: untreated control | 98
COc1cc(-c2cncc3c2CN(C)Cc2cc(N4CCNCC4)ccc2-3)cc(OC)c1OC | Phosphorylase b kinase gamma catalytic chain, liver/testis isoform (PHKG2, Homo sapiens, UniProt P15735) | kinase activity |  | 1 µM, human enzyme, added: ATP 10 µM | relative to: DMSO control | 118
C=CC(=O)N1CCC[C@@H](n2nc(-c3ccc(Oc4ccccc4)cc3)c3c(N)ncnc32)C1 | Ephrin type-A receptor 10 (EPHA10, Homo sapiens, UniProt Q5JZY3) |  |  | 10 µM |  | 289
CC(C)C[C@H](NC(=O)[C@H](Cc1ccccc1)NC(=O)c1cnccn1)B(O)O | Proteasome component C5/PSMB5 (Homo sapiens, UniProt P20618+P28074) | enzyme activity, inhibitor |  | 1 µM, PA28αβ-activated, HEPES buffer, added: Ac-WLA-AMC substrate |  | 0
C=CC(=O)N1CCC([C@@H]2CCNc3c(C(N)=O)c(-c4ccc(Oc5ccccc5)cc4)nn32)CC1 | Protein-tyrosine kinase 6 (PTK6, Homo sapiens, UniProt Q13882) | kinase activity, inhibitor, HotSpot radiometric |  | 100 nM, added: ATP 10 µM |  | 40.6 ± 2.1
O=C1NC(=O)/C(=C/c2ccc(-c3ccc(F)cc3O)o2)S1 | MAP3K1 | enzyme activity |  | 10 µM |  | 56
Cc1cc(Nc2cc(N3CCN(C)CC3)nc(Sc3ccc(NC(=O)C4CC4)cc3)n2)[nH]n1 | Serine/threonine-protein kinase Chk2 (CHEK2, Homo sapiens, UniProt O96017) | kinase activity, KinaseProfiler |  | 0.03 µM, species human | relative to: control | 104
